Earlier results, collected from citations in different studies.
Numbers after ± are the reported error.
Cell line: A549

With `N#CC1=C(N)OC2=C(C(=O)CCC2)C1c1ccc(-n2cccn2)cc1` (stereo not shown) the IC50 was 2250 ± 670 nM (cell growth).
`N#Cc1ccc(-c2csc(N3N=C(c4ccc(N5CCOCC5)cc4)CC3c3ccc(Cl)cc3)n2)cc1` (stereo not shown) has an IC50 of 10800 nM (cell growth, MTT).
For `C=CC(=O)N(c1cccc2ccccc12)S(=O)(=O)c1ccc(OC)cc1`, the IC50 was 1350 nM (cell growth).
For `[Cl-].[Cl-].[Ru+2].c1ccc(-c2ccccn2)nc1.c1ccc(-c2ccccn2)nc1.c1cnc2c(c1)ccc1cccnc12`, the IC50 was > 100000 nM (light irradiation).
For `O=C(CSc1nnc(Cn2cc(-c3ccccc3)nn2)o1)Nc1nc(-c2ccc(Br)cc2)cs1`, the IC50 was 400 nM (cell proliferation).
With `CC1=C(C)C(=O)OC(C(C)(O)C2CCC3C4CC5OC56C(O)C=CC(=O)C6(C)C4CCC32C)C1` (stereo not shown) the IC50 was 700 nM (cell growth).
`COc1cc(-c2nc3ccc(C)cc3[nH]2)cc(OC)c1OC` gave an IC50 of 11.8 µg/mL (cell growth).
`CCOC(=O)C1=C(CSC(=S)N(C2CCCCC2)C2CCCCC2)N(C)C(=O)NC1c1ccccc1` (stereo not shown): “late apoptotic cells” 3.31% (concentration not given; reference: untreated).
For `O=C1NCC(Cc2ccccc2)N(CC2CCCN2CC(CC2CCCCC2)N2CC(Cc3ccc(O)cc3)N(CCc3ccccc3)C(=O)C2=O)C1=O` (stereo not shown), the IC50 was > 100000 nM (cell viability; lung).
The EC50 of `CSCc1ccccn1.[Cl-].[Cl-].[Ru+2].c1ccc(-c2ccccn2)nc1.c1ccc(-c2ccccn2)nc1` is reported as > 150000 nM (cell growth; dark 2D monolayer).
`CCNc1cc2c(cc1C)C1(c3cc(C)c(NCC)cc3O2)c2ccccc2C(=O)N1N=Cc1ccnc(-c2cc(C)ccn2)c1.Cc1c(C)c(-c2ccc(-c3ccccc3)cc2)[c-](C)c1C.F[P-](F)(F)(F)(F)F.[Cl-].[Ir+3]` has a Pearson coefficient of 0.53 (refers to: lysosome colocalisation; concentration not given).
For `CCC1=C(O)c2c(oc(-c3cccc4ccccc34)cc2=O)C(CC)(CC)C1=O`, the IC50 was 1550 nM (cell growth, SRB).
`Cc1nc(-c2nc(-c3ccc(NC(=O)Cn4cc(-c5ccc([N+](=O)[O-])cc5)nn4)cc3)no2)c(C)o1` has an IC50 of 790 nM.
With `CCC1=C(O)c2c(oc(-c3ccc(OC)c4ccccc34)cc2=O)C(CC)(CC)C1=O` the IC50 was 1480 nM (cell growth, SRB).
With `CSCc1ccccn1.[Cl-].[Cl-].[Ru+2].c1ccc(-c2ccnc3c2ccc2c(-c4ccccc4)ccnc23)cc1.c1ccc(-c2ccnc3c2ccc2c(-c4ccccc4)ccnc23)cc1` the EC50 was 3400 nM (cell growth; dark 2D monolayer).
Under “late apoptotic cells increase”, `c1ccc(Cn2cc(COc3ccc(-c4nc5ccc(C6=NCCN6)cc5[nH]4)cc3)nn2)cc1` is recorded as 16.4% (concentration not given).

Repeated from above:
With `N#CC1=C(N)OC2=C(C(=O)CCC2)C1c1ccc(-n2cccn2)cc1` (stereo not shown) the IC50 was 2250 ± 670 nM (cell growth).
